Published values of several laboratories.
Each numbered part is a random draw from the data of one study; scales do not carry over between parts. Substitutions count along the parent as printed.

Study 1
Target: RING finger protein unkempt homolog, zinc fingers 1-6, GST-SBP tag (UNK, Homo sapiens, UniProt Q9C0B0, residues 30-357)
UniProt Q9C0B0, sequence (30-357, looked up): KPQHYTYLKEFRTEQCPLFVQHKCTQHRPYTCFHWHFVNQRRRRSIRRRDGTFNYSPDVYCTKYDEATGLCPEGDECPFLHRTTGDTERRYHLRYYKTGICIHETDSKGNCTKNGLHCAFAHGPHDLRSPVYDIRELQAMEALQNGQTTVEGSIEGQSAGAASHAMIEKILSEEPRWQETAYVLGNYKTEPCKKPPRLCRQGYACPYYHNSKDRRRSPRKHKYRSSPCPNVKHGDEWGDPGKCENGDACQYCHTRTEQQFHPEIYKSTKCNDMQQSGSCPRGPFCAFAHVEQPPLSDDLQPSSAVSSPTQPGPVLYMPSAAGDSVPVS
Method: RNA Bind-n-Seq
Molecule type: RNA
Matrix: in vitro
Tested at: not given
Setting: RNA with constant flanks, human and mouse sites, ends assumed
Relative to: input RNA pool
Direction: higher = stronger binding
Quantity: bound/input enrichment
Constant ends, left off below: GGGAGUUCUACAGUCCGACGAUC … CAACAGAGGAUUGAGCAUCA
GCCACUCCAUUCAGUUCCAAGUCCAGUACCAAGCCUGCAGCCGGGGGCACAGCACCCCUGCCUCCUUGGAAGUCCCCUUCCAGCUCCCAGCCUCUGCCCCAGGUUCCGGCUCCGGCUCAG: 0.279 ratio
ACUCAGAAGCCGAUUCAUCAGCUUUUUGAUUACAUCUGUGGAGUAAGCACAGGGGCCAUAUUAGCAUUUAUGCUGGGAUUGUUUCACAUGCCGCUGGAUGAAUGUGAGGAACUCUAUCGA: 0.324 ratio
CCAAUCGGACUGCACAAGAAGCGGAUUGAACUGUCUGUUCUUUCAUACCAUUCCUCCUUUAGCAUCAGAAAGAGCCGGUUGGUUCAUGGGUACAUUGUUUUUUAUUCAGCCAAACGUAAG: 2.22 ratio
UCGUAUAUCAGAUAUCUGGGACCCAAAGUCCCAACCUUUACAAACCUGGGUCUCUGUUUUAUAGAAUUUAAAAUACCUGGGAUUCAGGACCCUGUGUGCACCAAUAUCCGGGGUUCAUCC: 0.679 ratio
GCAAUCAAAAGAUUUAGUAGCAUAAAUGACAGGUCUCUGCUCCCUGCUUUAUCUUGUGUCCAGACAGCCCUGCUUCAUCUUUUGGAUAUGGGCUGGGAACCCAGUGAUCUUGCCUUCUUU: 0.147 ratio
CACCUGGGCGUAUUCACGCUGGGCGCCAGGGCCGACAGCUACUAUGAGUACCUGCUGAAGCAGUGGAUCCAGGGCGGGAAGCAGGAGACACAGCUGCUGGAAGACUACGUGGAAGCCAUC: 0.148 ratio
GCCUGCCUGCAGGCCUCCCGAGGAGCCCAGACAGCUGCAGCCACAGCUCCCCGUAUCAAGAAAUUUGCCAUCUAUCGAUGGGACCCAGACAAGGCUGGAGACAAACCUCAUAUGCAGACU: 0.237 ratio
GAAACAAGAUGGCGGGUUCGUGGUGAGAAGCCGUCAAGCAGGAGUAGAAAUUGGUAUGCUUAGAAGCAGAUUCUAAAAGCAGUUUCUCUUCAGAACAUCUUUUUUCAUACCACUUGAUAA: 0.224 ratio

Study 2
Target: ABI1, truncated, D143A, DHFR fusion (Arabidopsis thaliana)
Method: DHFR PCA, deep sequencing
Matrix: yeast
Setting: methotrexate growth selection, single substitutions
With: (+)-ABA 200 µM
Relative to: wild-type fitted maximum
Direction: higher = stronger binding
Quantity: relative binding score
Starting sequence: PYL1, truncated, DHFR fusion (Arabidopsis thaliana); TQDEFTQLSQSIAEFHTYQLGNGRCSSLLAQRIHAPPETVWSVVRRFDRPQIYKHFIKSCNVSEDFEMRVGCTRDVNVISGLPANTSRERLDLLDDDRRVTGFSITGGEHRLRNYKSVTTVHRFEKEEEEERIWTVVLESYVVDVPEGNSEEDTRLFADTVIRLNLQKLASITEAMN; partner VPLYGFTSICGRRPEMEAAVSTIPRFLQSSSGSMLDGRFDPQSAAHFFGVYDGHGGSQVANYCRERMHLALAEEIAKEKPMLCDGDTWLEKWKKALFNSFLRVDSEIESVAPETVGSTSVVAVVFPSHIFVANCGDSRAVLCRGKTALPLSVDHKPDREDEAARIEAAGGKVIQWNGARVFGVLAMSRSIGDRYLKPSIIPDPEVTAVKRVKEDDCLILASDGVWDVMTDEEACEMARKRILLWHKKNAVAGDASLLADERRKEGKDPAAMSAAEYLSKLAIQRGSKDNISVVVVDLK
P37Y: 54.5%
T119R: 8.17%
C25A: 106%
V78F: 86.6%
N22I: 94.4%
Q2M: 110%
G107H: 86.2%
F5I: 95.2%
S63N: 103%
D96P: 60.6%
G71E: 49.2%
C25S: 83.2%
T6F: 96.6%
V40T: 48.8%
N85C: 98.7%
G108T: 42.2%
I133F: 99.6%
Y53S: 41.7%
L8Q: 92.3%

Study 3
Target: CCND3, cyclin fold, Cln2 fusion (human)
Method: yeast growth competition, sequencing
Matrix: yeast
Setting: weak parent motif
Relative to: not given
Direction: higher = stronger binding
Quantity: normalised enrichment score
Starting sequence: E2F3 docking peptide (human); PPAKRRLELGESG
PPAKRRLELGEAG [S12A]: 0.0727
PPAKKRLEFGESG [R5K L9F]: 0.426
PPAKRRLELAESG [G10A]: 0.164
PPAKARLELGESG [R5A]: 0.0854
PPAKARAELGESG [R5A L7A]: 0.0711
PPAARRLELGESG [K4A]: 0.141
PAAKRRLELGESG [P2A]: 0.0909
PPAKRRLELGASG [E11A]: 0.213

Study 4
Target: RNA binding protein fox-1 homolog 2, RRM domain, GST-SBP tag (RBFOX2, Homo sapiens, UniProt O43251-10, residues 100-194)
Method: RNA Bind-n-Seq
Molecule type: RNA
Matrix: in vitro
Tested at: 365 nM
Setting: natural RNA segment, single round, ends assumed
Relative to: no-protein control
Direction: higher = stronger binding
Quantity: RBNS enrichment (R)
Constant ends, left off below: GGGAGUUCUACAGUCCGACGAUC … UGGAAUUCUCGGGUGCCAA
Residues (chain): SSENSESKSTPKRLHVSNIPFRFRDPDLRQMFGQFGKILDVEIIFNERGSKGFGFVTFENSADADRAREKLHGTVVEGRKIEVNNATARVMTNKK
GUGUUACUGUGUUCCCUUAGAGCAUGUGGGCCAGUGGGCCACAUUCAUAAUGCAGUUGCCCAAGGCCUGUCUUGCAGUGGUACCUUAAAGUUAACCUCAUAAUCUUGGAA: 1.24
UGUCAGCGGGCGCCACAGCGGAUCAGCGGUUCCGUGUUCACUUUUGUUGUACAAUAUAUGACACAGUGCACAUUGAAUACCAACAAGGUUGCAACGUUUACAUUAUAGCC: 0.201
ACUGAUAUGCUAUCAUUGAGGUUCAUCAAUGAAUUUGUACAUUUCUAGUUCCCUUUGGUGAAGGGAAAAAUGAUGAUUUUGCAAGACCUAGAUUUUGGCUUGGUUUCUUG: 0.528
GUGUUUCCAGGCACUUAGGACACCCUUCCCCACGUUGCCAUCUUACUGACAGUUCAAAUGACUCUCCUUUUUUGUUCGUUAGUAACAAUCUUCAUUUGACACCUUAAUAC: 0.622
UUGGGAUUAUAUAAUCUAGGGCCAAGAAGUUUACUGCCUGUGGAGCGGGCAGGAACUCUAGCCACCUUUCUCUGUUACCUGCAGCUGAUUGGCAAGGCUCCUAUGGAGCU: 0.32
ACAAAGUUGUCUUACCUGUCAGUGUAUGAAGCACUUUGCUCCUUAAGACAGACACCUUGGAACUUUCAUUCGGAAAUUAGUCCCCGAAGUUUGAGAUAAGUCUUUUUUUG: 0.336
UCUGUGAUUGCUUUCUAGCCAAAGCGAAGCUUGUACAGGUUGAGUAUCCCUUAUCCAAAAUGCUUGGAACCAGAAGUGUUUCAAAUUUUAGAUUAUUUUCAGAUUUUGGA: 0.385
GCAUUUAGGCUUUGAUGAGAGGGCACAGUUUGAGUUAGGUUUACCUCCCCCUUUCUGUGCCUGGGAACUGUUUGGUCCAGCUUUAGAACUGUGGUUUUGACUUCCUUAUC: 0.275

Some of these lines once more (study 3):
PPAKRRLELAESG [G10A]: 0.164
PPAKARLELGESG [R5A]: 0.0854
PPAKARAELGESG [R5A L7A]: 0.0711
PPAARRLELGESG [K4A]: 0.141
PAAKRRLELGESG [P2A]: 0.0909
